Measured values gathered from unrelated publications.
Lines come from different studies, so protocols differ. Several values in a cell are separate wells, animals, samples, runs or records. Numbers after ± are the reported error.

CCC(CC)COC(=O)[C@H](C)N[P@](=O)(OC[C@H]1O[C@@](C#N)(c2ccc3c(N)ncnn23)[C@H](O)[C@@H]1O)Oc1ccccc1 — half-life (human liver microsomes; 1 µM, pH 7.4, with: NADPH, cobicistat): 0.68 h
Cc1ccc(NC(=O)c2ccc(CN3CCN(C)CC3)cc2)cc1Nc1nccc(-c2cncc(-c3oncc3C)c2)n1 — half-life (healthy volunteers, plasma; oral, 25.0 mg once daily, day 7, 7-day dosing, mean): 27.9 h
COc1cc2c3c(n(CCCN4CCOCC4)c(=O)c2cc1OC)-c1cc2c(cc1C3=O)OCO2 — half-life (patients, weekly schedule, plasma; intravenous, all dose levels): 69 h
CS(=O)(=O)n1cc2c(n1)CN([C@H]1CO[C@H](c3cc(F)ccc3F)[C@@H](N)C1)C2 — half-life (healthy Japanese men, plasma; oral, 1 mg once weekly, day 15): 145 h
CN(C(=O)[C@H](Cc1ccccc1)NC(=O)CNC(=O)c1ccccc1)c1ccc(Cl)cc1 — half-life (mouse liver microsomes; 1 µM, pH 7.4, with: cobicistat 0.5 µM): 0.867 h
CC(C)C[C@H](N)C(=O)OC[C@H]1O[C@@H](n2cc(F)c(=O)[nH]c2=O)C[C@@H]1O — half-life (human small intestine homogenate; pH 7.4, 37 °C, protein 1000 µg/mL): 0.222 ± 0.0417 h
CNCCC(Oc1ccc(C(F)(F)F)cc1)c1ccccc1 (centres unmarked) — half-life (whole body; oral, medium dose, depuration phase): 2190 h
CC[C@H](C)[C@H](NC(=O)[C@H](CCC(=O)O)NC(=O)[C@H](CO)NC(=O)[C@@H](NC(=O)[C@@H](N)CO)C(C)C)C(=O)N[C@@H](CCC(N)=O)C(=O)N[C@@H](CC(C)C)C(=O)N[C@@H](CCSC)C(=O)N[C@@H](Cc1cnc[nH]1)C(=O)N[C@@H](CC(N)=O)C(=O)N[C@@H](CC(C)C)C(=O)NCC(=O)N[C@@H](CCCCN)C(=O)N[C@@H](Cc1cnc[nH]1)C(=O)N[C@@H](CC(C)C)C(=O)N[C@@H](CC(N)=O)C(=O)N[C@@H](CO)C(=O)N[C@@H](CCSC)C(=O)N[C@@H](CCC(=O)O)C(=O)N[C@@H](CCCN=C(N)N)C(=O)N[C@H](C(=O)N[C@@H](CCC(=O)O)C(=O)N[C@@H](Cc1c[nH]c2ccccc12)C(=O)N[C@@H](CC(C)C)C(=O)N[C@@H](CCCN=C(N)N)C(=O)N[C@@H](CCCCN)C(=O)N[C@@H](CCCCN)C(=O)N[C@@H](CC(C)C)C(=O)N[C@@H](CCC(N)=O)C(=O)N[C@@H](CC(=O)O)C(=O)N[C@H](C(=O)N[C@@H](Cc1cnc[nH]1)C(=O)N[C@@H](CC(N)=O)C(=O)N[C@@H](Cc1ccccc1)C(=O)O)C(C)C)C(C)C — half-life (postmenopausal osteoporotic women, serum; subcutaneous, 20 µg once daily): 1 h
CCCCCCCCC(=O)N[C@H]1CNC1=O — half-life (phosphate buffer, 10% MeCN; 1 µM, pH 5.0, 37 °C): > 24 h
O=C(CCCCCCC(=O)Nc1ccccc1)NO — half-life (LC-MS/MS; human, serum; oral, 600 mg twice daily): 2.2 h and 2.3 h
COc1ccc2[nH]c([S+]([O-])Cc3ncc(C)c(OC)c3C)nc2c1 (centres unmarked) — half-life (healthy Chinese, CYP2C19 intermediate metabolizers, plasma; oral, 20 mg single dose): 1.12 ± 0.6 h
Nc1cc(F)ccc1NC(=O)c1ccc(CNC(=O)/C=C/c2cccnc2)cc1 — half-life (Japanese patients, plasma; oral, 30 mg twice weekly, cycle 1 day 25, arithmetic mean): 21.6 h
C[C@@H]1CCO[C@H]2Cn3cc(C(=O)NCc4ccc(F)cc4F)c(=O)c(O)c3C(=O)N12 — half-life (mean; HIV-1 infected treatment-experienced adolescents, plasma; oral, about 1 mg/kg once daily, steady state): 12.7 h
CN1C(=O)[C@@H](NC(=O)c2nnc(Cc3ccccc3)[nH]2)COc2ccccc21 — half-life (healthy men, plasma; oral, 20 mg once daily, day 14, geometric mean): 3.79 h
CCN1CCN(Cc2ccc(Nc3ncc(F)c(-c4cc(F)c5nc(C)n(C(C)C)c5c4)n3)nc2)CC1 — half-life (population PK model; patients, plasma; oral, 200 mg single dose): 24.8 h
CC(C)[C@H](N)C(=O)OC[C@H]1O[C@@H](n2cc(F)c(=O)[nH]c2=O)C[C@@H]1O — half-life (human small intestine homogenate; pH 7.4, 37 °C, protein 1000 µg/mL): 0.258 ± 0.0267 h
NC(=O)c1cnc2[nH]ccc2c1N[C@@H]1[C@@H]2CC3C[C@H]1C[C@@](O)(C3)C2 — half-life (healthy Japanese men, plasma; oral, 200 mg, single dose fasted): 7.5 h
C[C@]12C=CC(=O)C=C1CC[C@@H]1[C@@H]2[C@@H](O)C[C@@]2(C)[C@H]1C[C@H]1O[C@@H](C3CCCCC3)O[C@]12C(=O)CO — half-life (children with asthma, serum; inhaled, 160 µg ciclesonide, day 7, HFA-MDI without spacer): 3.02 ± 0.21 h
COc1cc(OC)c(/C=C/S(=O)(=O)Cc2ccc(OC)c(NCC(=O)O)c2)c(OC)c1 — half-life (cancer patients, phase I, plasma; oral, 560 mg twice daily, day 1 cycle 1): 2.42 ± 1.1 h
Cc1cn(CC(=O)N[C@@H](Cc2ccccc2)C(=O)N(C)c2ccc(Cl)cc2)c(=O)[nH]c1=O — half-life (human liver microsomes; 1 µM, pH 7.4, with: cobicistat 0.5 µM): > 2 h
CC(C)[C@H](N)C(=O)N[C@@H](Cc1ccccc1)C(=O)OC[C@H]1O[C@@H](n2cc(F)c(=O)[nH]c2=O)C[C@@H]1O — half-life (human pancreas homogenate; pH 7.4, 37 °C, protein 500 µg/mL): 0.895 ± 0.08 h
O=C(CCc1ccccc1)N[C@H]1CNC1=O — half-life (phosphate buffer, 10% MeCN; 1 µM, pH 5.0, 37 °C): > 24 h
O=C(NO)c1cncc(OS(=O)(=O)Oc2ccc3ccccc3c2)c1 — half-life (buffer with or without glutathione; 50 µM, pH 7.4, 37 °C, with: glutathione 2 mM): > 20 h
N[C@@H](CC(=O)O)C(=O)OC(C(=O)O)c1ccccc1[N+](=O)[O-].O=C(O)C(F)(F)F (mixture of isomers) — half-life (hydrolysis, 1H NMR; aqueous sodium phosphate, 12.5% DMSO-d6; pH 7, dark, less stable diastereomer): 13.9 ± 0.2 h
Cn1cnnc1SCC(=O)C12CC3CC(CC(C3)C1)C2 — half-life (metabolic stability; human liver microsomes; 37 °C, with: NADPH): 1.13 h
COc1ccc(F)c(CCCC2CCC(CCNCCCCCN3N=C(c4ccc(OC)c(OC)c4)[C@H]4CC=CC[C@H]4C3=O)O2)c1 (some centres unmarked) — half-life (human liver microsomes; 40 µM, pH 7.4, 37 °C, with: NADPH): > 1 h
NC(=O)c1cnc2[nH]ccc2c1N[C@@H]1[C@@H]2CC3C[C@H]1C[C@@](O)(C3)C2 — half-life (Japanese, mild hepatic impairment, plasma; oral, 150 mg single dose, mean): 13.7 h
COc1ccc2c3c1O[C@H]1C[C@@H](OC(=O)c4ccccc4)C=C[C@@]31CCN(C)C2 — half-life (healthy elderly men, plasma; intranasal, 33 mg, single dose): 2.34 h
CC[C@H](C)[C@H](NC(=O)[C@H](C)NC(=O)[C@H](CCC(=O)O)NC(=O)[C@H](CCSC)NC(=O)[C@@H](NC(=O)[C@@H](N)C(C)C)[C@@H](C)O)C(=O)N[C@@H](CC(N)=O)C(=O)N[C@@H](CC(C)C)C(=O)N[C@@H](C)C(=O)N[C@@H](Cc1ccccc1)C(=O)N1CCC[C@H]1C(=O)NCC(=O)O — half-life (residual EphA4 binding inhibition; PC-3 conditioned medium; 500 µM, 37 °C): ~30 h
CC(C)(c1ccc(O)cc1)c1ccc(O)cc1 — half-life (GC-MS; exposure tank water; 5000 ng/L, 20 °C): 3.75 h
CC#CC(=O)N1CCC[C@H]1c1nc(-c2ccc(C(=O)Nc3ccccn3)cc2)c2c(N)nccn12 — half-life (Japanese patients, plasma; oral, 100 mg single dose, fasting, arithmetic mean): 9.36 ± 12.5 h
N[C@@H](Cc1ccccc1)C(=O)NCC(=O)OC[C@H]1O[C@@H](n2cc(F)c(=O)[nH]c2=O)C[C@@H]1O — half-life (human small intestine homogenate; pH 7.4, 37 °C, protein 1000 µg/mL): 0.118 ± 0.005 h
CCOc1ccc(Cc2cc([C@@H]3S[C@H](CO)[C@@H](O)[C@H](O)[C@H]3O)c(OC)cc2C)cc1 — half-life (Japanese type 2 diabetes patients, plasma; oral, 5 mg single dose, eGFR ≥90 mL/min/1.73 m^2): 10.4 ± 0.832 h
Nc1nc(NC2CC2)c2ncn([C@H]3C=C[C@@H](CO)C3)c2n1 — half-life (HIV-infected children and adolescents, plasma; oral, 8 mg/kg): 1.3 h
O=C(O)C[C@H](O)C[C@H](O)/C=C/c1c(C2CC2)nc2ccccc2c1-c1ccc(F)cc1 — half-life (healthy Chinese male volunteers, plasma; oral, 2 mg once daily, multiple dose): 13.8 h

Some of these lines once more:
CNCCC(Oc1ccc(C(F)(F)F)cc1)c1ccccc1 (centres unmarked) — half-life (whole body; oral, medium dose, depuration phase): 2190 h
COc1cc(OC)c(/C=C/S(=O)(=O)Cc2ccc(OC)c(NCC(=O)O)c2)c(OC)c1 — half-life (cancer patients, phase I, plasma; oral, 560 mg twice daily, day 1 cycle 1): 2.42 ± 1.1 h
COc1ccc2[nH]c([S+]([O-])Cc3ncc(C)c(OC)c3C)nc2c1 (centres unmarked) — half-life (healthy Chinese, CYP2C19 intermediate metabolizers, plasma; oral, 20 mg single dose): 1.12 ± 0.6 h
N[C@@H](CC(=O)O)C(=O)OC(C(=O)O)c1ccccc1[N+](=O)[O-].O=C(O)C(F)(F)F (mixture of isomers) — half-life (hydrolysis, 1H NMR; aqueous sodium phosphate, 12.5% DMSO-d6; pH 7, dark, less stable diastereomer): 13.9 ± 0.2 h
CC#CC(=O)N1CCC[C@H]1c1nc(-c2ccc(C(=O)Nc3ccccn3)cc2)c2c(N)nccn12 — half-life (Japanese patients, plasma; oral, 100 mg single dose, fasting, arithmetic mean): 9.36 ± 12.5 h
CCOc1ccc(Cc2cc([C@@H]3S[C@H](CO)[C@@H](O)[C@H](O)[C@H]3O)c(OC)cc2C)cc1 — half-life (Japanese type 2 diabetes patients, plasma; oral, 5 mg single dose, eGFR ≥90 mL/min/1.73 m^2): 10.4 ± 0.832 h
